Measured values pooled from the literature.
Lines come from different studies, so protocols differ. ± marks the error that the study gave.

Cc1nc(-c2cnc(NC(C)C)n(C)c2=O)ccc1Oc1ccnc(-c2cnn(C)c2)c1 gave an AUC(0-inf) of 8360 ng·h/mL (Beagle dog, male, plasma; oral, 3 mg/kg, crossover study, mean).
The AUC(0-inf) of COc1cc(C(=O)NC2CCN(C)CC2)c(F)cc1Nc1ncc(C(F)(F)F)c(Oc2cccc3c2C(=O)N(C)C3)n1 is reported as 3.92 µM·h (cancer patients, plasma; oral, 25 mg single dose, cycle 1 day 1, geometric mean).
With C=CC(=O)NC1CCN(c2ncc3ncnc(Nc4ccc(Oc5ccc6c(c5)ncn6C)c(C)c4)c3n2)CC1 the AUC(0-inf) was 0.827 µM·h (male beagle dogs, plasma; oral, 3 mg/kg, Natrosol suspension, together with: famotidine pretreatment).
COc1cc2c3c(n(CCCN4CCOCC4)c(=O)c2cc1OC)-c1cc2c(cc1C3=O)OCO2 gave an AUC(0-inf) of 1440 ± 651 ng·h/mL (beagle dog, male, plasma; intravenous infusion, 50 mg/m^2, 1 h infusion, vehicle 2).
With N#C[C@@]1(c2ccc3c(N)ncnn23)O[C@H](CO)[C@@H](O)[C@H]1O the AUC(0-inf) was 19300 ng·h/mL (beagle dog male, plasma; oral capsule, 6.5 mg/kg).
For C[C@@H](N)C1CCN(S(=O)(=O)c2cccc3cnccc23)CC1, the AUC(0-inf) was 44.7 ng·h/mL (healthy volunteers, plasma; oral, 150 mg, fed, single dose).
For COc1nc(-c2cc(C)c(N[C@@H](C)c3cc(F)cc(F)c3)nn2)ccc1-n1cnc(C)c1, the AUC(0-inf) was 3180 ng·h/mL (cynomolgus monkey, male, plasma; intravenous, 1 mg/kg).
The AUC(0-inf) of CCn1cc(C(=O)N2CCOCC2)c(=O)c2cc(NC3Cc4ccccc4C3)cnc21 is reported as 37700 ng·h/mL (human, fasted, plasma; oral, 1200 mg single dose, tablet, arithmetic mean).
C[C@@H]1CN(CC(=O)N2CC(C)(C)c3ncc(Cc4ccc(F)cc4)cc32)[C@@H](CN2CCOC[C@H]2C)CN1 gave an AUC(0-inf) of 80 ± 11 ng·h/mL (cynomolgus monkey, male; oral, 5 mg/kg).

For quick reference, copied from above:
COc1cc2c3c(n(CCCN4CCOCC4)c(=O)c2cc1OC)-c1cc2c(cc1C3=O)OCO2 gave an AUC(0-inf) of 1440 ± 651 ng·h/mL (beagle dog, male, plasma; intravenous infusion, 50 mg/m^2, 1 h infusion, vehicle 2).
